Measurements pooled from the literature.
Compare with care: the assays were run in different laboratories. Several values in a cell are separate wells, animals, samples, runs or records. ± gives the spread as reported.
Voltage-dependent P/Q-type calcium channel subunit alpha-1A: Voltage-dependent P/Q-type calcium channel subunit alpha-1A (Homo sapiens, UniProt O00555)
Rab GDP dissociation inhibitor beta with Rab1A: Rab GDP dissociation inhibitor beta, with Rab1A (Homo sapiens, UniProt P50395)
A-type voltage-gated potassium channel KCND3: A-type voltage-gated potassium channel KCND3 (Rattus norvegicus, UniProt Q62897)
ADRA2C: Alpha-2C adrenergic receptor (ADRA2C, Homo sapiens, UniProt P18825)

| SMILES | target | test | system | conditions | measurement | result |
| --- | --- | --- | --- | --- | --- | --- |
| COc1cc(Cl)c(C(=O)N[C@@H](CN[C@H]2CC[C@@H](N)CC2)Cc2ccc(C#N)cc2)cc1-c1ccc(CN[C@H](C)c2ccc(C)cc2)o1 | Melanocortin receptor 4 (MC4R, Homo sapiens, UniProt P32245) | agonist response, antagonist | human cells | 10 µM, MC4 antagonist | inhibition | 80% |
| [2H]c1cc(C)c(NC(=O)c2cnc(Nc3cc(N4CCC(O)CC4)nc(C)n3)s2)c(Cl)c1 | Platelet-derived growth factor receptor alpha (PDGFRA, Homo sapiens, UniProt P16234) |  |  | 0.001 µM | inhibition | < 50% |
| CC[C@@H]1C(=O)OC[C@@H]1Cc1cncn1C.Cl | Voltage-dependent P/Q-type calcium channel subunit alpha-1A | ion current, antagonist |  | 3 µM | inhibition | 12% |
| Cc1cc(C)cc(COc2cc3c(cc2OCc2cc(C)cc(C)c2)[C@H]2C[C@](O)(Cc4cn(-c5ccccc5)nn4)C[C@H](C)N2CC3)c1 | Rab GDP dissociation inhibitor beta with Rab1A | GDI2-Rab1A interaction, NanoLuc complementation |  | 6.25 µM | inhibition | 93.9% |
| CC[C@@H]1[C@H](F)C(=O)N[C@@H]1COc1nccc2cc(C(N)=O)c(OC)cc12 | Serine/threonine-protein kinase tousled-like 2 (TLK2, Homo sapiens, UniProt Q86UE8) | ATP-site probe binding, ActivX profiling | THP-1 cell lysate | 0.01 mM, Lys2 site | inhibition | 0.7% |
| Cn1cc(-c2cnc3ccc(NC(=O)Nc4ccc(F)c(Br)c4)cc3n2)cn1 | Mitogen-activated protein kinase kinase kinase 4 (MAP3K4, Homo sapiens, UniProt Q9Y6R4) | kinase binding, KiNativ profiling, item: Lys1 peptide | PANC-1 lysate | 1.25 µM | inhibition | 5.1% |
| CCN(CC)CCOc1ccc2c(c1)C(=O)c1cc(OCCN(CC)CC)ccc1-2 | human acetylcholinesterase | enzyme activity, inhibitor |  | 1 µM | inhibition | > 50% |
| O=C(Nc1cccc2c(=O)cc(-c3nnn[nH]3)oc12)c1ccc(OCCCCc2ccccc2)cc1 | LRRC8A/LRRC8C (Homo sapiens, UniProt Q8IWT6+Q8TDW0, L134K/L136K) | ion current, whole-cell patch clamp | LRRC8-/- HCT cells | 10 µM, L134K/L136K mutant, +100 mV | inhibition | 65.1% and 78% and 84.2% and 85.5% and 90.8% and 87.2% |
| COc1cc(-c2cc(C(C)=O)n3ccccc23)c(OC)cc1Cn1ccnc1 | Bromodomain-containing protein 4, BD1 (BRD4, Homo sapiens, UniProt O60885) |  |  | 1 µM | inhibition | -2.62% |
| C#CC[C@]1(O)C[C@@H]2c3cc(OCc4cc(C)cc(C)c4)c(OCc4cc(C)cc(C)c4)cc3CCN2[C@@H](C)C1 | Rab GDP dissociation inhibitor beta with Rab1A | GDI2-Rab1A interaction, NanoLuc complementation |  | 6.25 µM | inhibition | 82.2% |
| COc1cc(C(=O)NS(=O)(=O)c2ccccc2C)ccc1Cc1cn(C)c2ccc(NC(=O)OC3CCCC3)cc12 | LRRC8A/LRRC8C (Homo sapiens, UniProt Q8IWT6+Q8TDW0) | ion current, whole-cell patch clamp | HCT116 LRRC8-/- with LRRC8A/LRRC8C heteromer | 100 µM, at +100 mV | inhibition | 97.5% and 71.7% and 97.2% and 95.8% and 62.2% and 59.6% |
| COc1ccc(C=C(C#N)C(=O)Nc2ccccc2OC)cc1O | Ubiquitin carboxyl-terminal hydrolase isozyme L1 (UCHL1, Homo sapiens, UniProt P09936) | covalent, intact protein LC-MS |  | 12.5 µM | labelling | 10.4% |
| CN1CCN(c2cc(-c3ccncc3)c(-c3ccc4ccccc4c3)nn2)CC1 | Lutropin-choriogonadotropic hormone receptor (LHCGR, Homo sapiens, UniProt P22888) | antagonist, FLIPR |  | 10 µM | inhibition | 9.7% |
| Nc1nc2ccc(OC(F)(F)F)cc2s1 | Voltage-dependent P/Q-type calcium channel subunit alpha-1A | ion current, antagonist | HEK293 | 30 µM | inhibition | 71% |
| COc1cc2ncnc(Nc3ccc(Oc4ccccc4)c(C)c3C)c2cc1OC | Tyrosine-protein kinase Lyn (LYN, Homo sapiens, UniProt P07948) | kinase activity, inhibitor |  | 1 µM | inhibition | 83% |
| CCCN1CCCC[C@H]1C(=O)Nc1c(C)cccc1C | Voltage-dependent P/Q-type calcium channel subunit alpha-1A | ion current, antagonist | HEK293 | 3 µM | inhibition | 14% |
| Cc1cc(-c2ccnc3[nH]cc(F)c23)cc(F)c1[C@@]1(O)[C@H](C)CN(C2CCS(=O)(=O)CC2)C[C@@H]1C | Phosphatidylinositol 3-kinase catalytic subunit type 3 (PIK3C3, Homo sapiens, UniProt Q8NEB9) | ATP probe binding, KiNativ, item: ATP site | HEK293T cell lysate | 0.1 µM | inhibition | 2.8% |
| C=CS(=O)(=O)Nc1ccc(CCn2cc(C[C@@]3(O)C[C@@H]4c5cc(OCc6cc(C)cc(C)c6)c(OCc6cc(C)cc(C)c6)cc5CCN4[C@@H](C)C3)nn2)cc1 | Rab GDP dissociation inhibitor beta with Rab1A | GDI2-Rab1A interaction, NanoLuc complementation |  | 6.25 µM | inhibition | 94.7% |
| CC(C)c1noc2ncc(C(=O)c3ccccc3O)cc12 | A-type voltage-gated potassium channel KCND3 | ion current, whole-cell patch-clamp |  | 10 µM, rKv4.3 | inhibition | 12.9% |
| CN(C(=O)n1cnc(-c2ccc[n+]([O-])c2)c1)C1CCCCC1 | ADRA2C |  |  | 10 µM | inhibition | -5% |
| CN(C)CCCN1c2ccccc2Sc2ccc(Cl)cc21 | Voltage-dependent P/Q-type calcium channel subunit alpha-1A | ion current, antagonist | HEK293 | 10 µM | inhibition | 97% |

| SMILES | target | test | system | conditions | measurement | result |
| --- | --- | --- | --- | --- | --- | --- |
| Cc1ccc(C(=O)Nc2ccc3ccccc3c2)o1 | A-type voltage-gated potassium channel KCND3 | ion current, inhibitor, whole-cell patch clamp |  | 10 µM | inhibition | 5.7% and 10.9% and 7.1% and 6.3% and 5.1% |
| CNCC[C@H](Oc1cccc2ccccc12)c1cccs1 | Voltage-dependent P/Q-type calcium channel subunit alpha-1A | ion current, antagonist | HEK293 | 10 µM | inhibition | 28% |
| [2H]c1cc(C)c(NC(=O)c2cnc(Nc3cc(N4CCCCC4)nc(C)n3)s2)c(Cl)c1 | Platelet-derived growth factor receptor beta (PDGFRB, Homo sapiens, UniProt P09619) |  |  | 0.01 µM | inhibition | 30 to 90% |
| Cc1nn(-c2nc3c(F)cc(F)cc3s2)c(O)c1C(c1ccccc1C(F)(F)F)c1c(C)nn(-c2nc3c(F)cc(F)cc3s2)c1O | Cyclic GMP-AMP synthase, catalytic domain; with DNA (CGAS, Homo sapiens, UniProt Q8N884) | cGAS phase separation, inhibitor |  | 50 µM | inhibition | 90.7% |
| CCN(c1cc(C#CCN2CCOCC2)cc(C(=O)NCc2c(C)cc(C)[nH]c2=O)c1C)[C@H]1CC[C@H](N(C)CCOC)CC1 | Histone-lysine N-methyltransferase EZH2 (EZH2, Homo sapiens, UniProt Q15910) | enzyme activity, inhibitor |  | 1 µM, together with: peptide substrate | inhibition | 100 ± 16% |
| Cc1cc(-c2ccnc3[nH]cc(F)c23)cc(F)c1[C@@]1(O)[C@H](C)CN(C(=O)CN)C[C@@H]1C | Serine/threonine-protein kinase 38-like (STK38L, Homo sapiens, UniProt Q9Y2H1) | ATP probe binding, KiNativ, item: Lys2 site | HEK293T cell lysate | 10 µM | inhibition | 38% |
| C=CC(=O)Nc1ccc(Cn2cc(C[C@@]3(O)C[C@@H]4c5cc(OCc6cc(C)cc(C)c6)c(OCc6cc(C)cc(C)c6)cc5CCN4[C@@H](C)C3)nn2)cc1 | Rab GDP dissociation inhibitor beta with Rab1A | GDI2-Rab1A interaction, NanoLuc complementation |  | 6.25 µM | inhibition | 92.7% |
| OO | Histone acetyltransferase RTT109, with Vps75 (Saccharomyces cerevisiae, UniProt Q07794) | enzyme activity |  | 1 mM, together with: Rtt109-Vps75 complex, without DTT | inhibition | 20 ± 5% |
| CCCC(CCC)C(N)=O | Epoxide hydrolase 1 (EPHX1, Homo sapiens, UniProt P07099) | enzyme activity | human liver microsomes | 10 µM, together with: styrene oxide 50 µM | inhibition | 50% |
| C=C(NC(=O)C(=C)NC(=O)c1csc(C2=N[C@@H]3c4csc(n4)[C@H]4NC(=O)c5csc(n5)[C@H]([C@](C)(O)[C@@H](C)O)NC(=O)[C@H]5CSC(=N5)/C(=C/C)NC(=O)[C@H]([C@@H](C)O)NC(=O)c5csc(n5)[C@]3(CC2)NC(=O)[C@H](C)NC(=O)C(=C)NC(=O)[C@H](C)NC(=O)[C@H]([C@@H](C)CC)N[C@@H]2C=Cc3c([C@H](C)O)cc(nc3[C@H]2O)C(=O)O[C@@H]4C)n1)C(N)=O | Thioredoxin reductase 1, cytoplasmic (TXNRD1, Homo sapiens, UniProt Q16881) | enzyme activity |  | 50 µM, 1 h, pH 8.0, 37 °C | inhibition | no inhibition |
| CCN1/C(=C/C(C)=O)Sc2ccc(F)cc21 | ADRA2C | TGFα shedding, inhibitor |  | concentration not given | inhibition | no inhibition |
| Cc1cc(C)cc(COc2cc3c(cc2OCc2cc(C)cc(C)c2)[C@H]2C[C@](O)(Cc4cn(Cc5ccc(Cl)c(Cl)c5)nn4)C[C@H](C)N2CC3)c1 | Rab GDP dissociation inhibitor beta with Rab1A | GDI2-Rab1A interaction, NanoLuc complementation |  | 6.25 µM | inhibition | 92.4% |
| O=C(C[C@@H](C(F)F)n1ccc(F)n1)N1CCC(O)(Cn2cnc3c(cnn3-c3ccc(F)cc3)c2=O)CC1 | Ubiquitin carboxyl-terminal hydrolase 7 (USP7, Homo sapiens, UniProt Q93009) | enzyme activity, inhibitor |  | 0.005 µM | inhibition | 52.5% and 37.8% |
| Fc1ccc([C@@H]2CCNC[C@H]2COc2ccc3c(c2)OCO3)cc1 | Voltage-dependent P/Q-type calcium channel subunit alpha-1A | ion current, antagonist | HEK293 | 10 µM | inhibition | 97% |
| Cc1cc(C)cc(COc2cc3c(cc2OCc2cc(C)cc(C)c2)[C@H]2C[C@](O)(Cc4cn(Cc5ccncc5)nn4)C[C@H](C)N2CC3)c1 | Rab GDP dissociation inhibitor beta with Rab1A | GDI2-Rab1A interaction, NanoLuc complementation |  | 6.25 µM | inhibition | 86.3% |
| CN1C(N)=N[C@](C)(c2cc(NC(=O)c3ccc(F)cn3)ccc2F)CS1(=O)=O | Voltage-dependent P/Q-type calcium channel subunit alpha-1A | ion current, antagonist |  | 10 µM | inhibition | 31% |
| COc1ccc(F)cc1C(=O)NCc1ccc(-c2nn([C@@H](C)C(F)(F)F)c(N)c2C(N)=O)cc1 | Tyrosine-protein kinase Tec (TEC, Homo sapiens, UniProt P42680) | target engagement, competitive chemoproteomics | human PBMCs | 10 µM | inhibition | > 90% |
| NC/C(=C\F)COc1cccc(Cn2c(=S)[nH]c(=O)c3[nH]cnc32)c1 | mouse phorbol ester receptor | radioligand binding |  | 10 µM | inhibition | < 50% |
| CC(C)NCC(O)COc1cccc2ccccc12 (centres unmarked) | Voltage-dependent P/Q-type calcium channel subunit alpha-1A | ion current, antagonist | HEK293 | 3 µM | inhibition | 20% |
| Cc1ccc(CNC(=O)[C@H](CCc2ccccc2)NC(=O)[C@H](CCc2ccccc2)NC(=O)[C@H](CCc2ccccc2)NC(=O)c2cnc(C)cn2)cc1 | trypsin | enzyme activity, inhibitor |  | 100 µM | inhibition | 12% |
